Published values gathered from unrelated publications.
A part holds a random share of what one study measured.

Set 1 — method: RNA Bind-n-Seq; form: RNA; matrix: in vitro; tested at: 365 nM; baseline: no-protein control; direction: higher = stronger binding
Target: RNA binding protein fox-1 homolog 2, RRM domain, GST-SBP tag (RBFOX2, Homo sapiens, UniProt O43251-10, residues 100-194)
Notes: natural RNA segment, single round, ends assumed
Construct (chain): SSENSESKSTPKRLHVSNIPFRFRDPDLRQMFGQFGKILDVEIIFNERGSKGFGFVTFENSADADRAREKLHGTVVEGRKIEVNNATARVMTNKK
Strand	RBNS enrichment (R)
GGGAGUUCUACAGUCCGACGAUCAUGAAACCCGUAUAGUUCACAAUAGAGCUCAGGGAGCCCCUAACUCUUCCAAACCACAUGGGAGACAGUUUCCUUCAUGCCCAAGCCUGAGCUCAGAUCCAGCUUGCAACUGGAAUUCUCGGGUGCCAA	0.29
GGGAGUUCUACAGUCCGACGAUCGUAUGGUUUCCCCAGGUCUGAACUGGGUACCCCCAGGGUGUUUACUAACUCUGGUGAAGGGUUUGGAAACCAUAUGUGGUUCUAGAAUUAACUCCCCUUUCCCUCAAACUUGGAAUUCUCGGGUGCCAA	0.318
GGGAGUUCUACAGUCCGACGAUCGAUGUUAUUUGGCCAUCUCCUGGUUAUAUACAAAUGUGACCCGUGAUAAUGUGAUUGAACACUUUAGUAAUGCAAAAUAACUCAUUUCCAACUACUGCUGCAGCAUUUUGUGGAAUUCUCGGGUGCCAA	0.357
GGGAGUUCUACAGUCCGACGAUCUGAGCUAAAAUAUGCAAAAUCUGAACUAAAAUAUGCAAAAUCACUUUAAUAUAAUUUGACAUUUGAGGAGUACCAUUGCACUAACAGGAAAUCACUGCCGGAGACAGCCCUGGAAUUCUCGGGUGCCAA	0.514
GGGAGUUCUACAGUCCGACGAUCGCCAGUUCCUCUCUCGCUCUGUUUCCAGACCUGUCUCUCUCUCUGUCCUGGCAGCUUCUCUGAGGUGCUGCUCGUUUGCAUUAGUCCCGCCUCCUCCAUCUUUCAUGUGGUGGAAUUCUCGGGUGCCAA	0.56
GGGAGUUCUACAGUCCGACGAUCCCUUCCAGACUUAAGAAUUUUAUGGCAUGGCCCAAUUGAUAUAAACAUUUAGAAGGAAAUGAAAAGCUAAAAUAGGAAGUAAUUAUUCCUCUAAAGAAACAUUUUGAGCAUGGAAUUCUCGGGUGCCAA	4.16
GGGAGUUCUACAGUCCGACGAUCAGGACCUUGCCUCUCUGGAAUCUGUCAACCCAGUUUUGGGCUCCAGGUGGAUGGGUUGCUUUAUAAAUGUGCCUGGUGCAUGAGAAACUCUUGUUUCAGCUCUUGGCCUUUGGAAUUCUCGGGUGCCAA	4.43
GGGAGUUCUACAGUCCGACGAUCGCCCGUCUGCCUCCCCGGCACGGCACGGCUCCGCACGCAACCUAAGCGUGCCACCACGGUCUCUUAUUUAUGGUGUGAUCACCCUGGAGGGCGCCCCCGCCCUGCUGGGGUGGAAUUCUCGGGUGCCAA	0.758
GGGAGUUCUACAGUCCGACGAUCCCCCUCGCCUUGGUGAUUUCUUGUUUGAUUUUGCCUCAUGGUCAAGAAAGGAGGGGGAAAAUCCAGCGUGCCCCAUCUCCUACCCACCCCCUCUUUGUAUUCUCUUUGUAUGGAAUUCUCGGGUGCCAA	0.634

Set 2 — method: RNA Bind-n-Seq; form: RNA; matrix: in vitro; tested at: not given; notes: RNA with constant flanks, ends assumed; baseline: input RNA pool; direction: higher = stronger binding
Target: RING finger protein unkempt homolog, zinc fingers 1-6, GST-SBP tag (UNK, Homo sapiens, UniProt Q9C0B0, residues 30-357)
Construct (chain): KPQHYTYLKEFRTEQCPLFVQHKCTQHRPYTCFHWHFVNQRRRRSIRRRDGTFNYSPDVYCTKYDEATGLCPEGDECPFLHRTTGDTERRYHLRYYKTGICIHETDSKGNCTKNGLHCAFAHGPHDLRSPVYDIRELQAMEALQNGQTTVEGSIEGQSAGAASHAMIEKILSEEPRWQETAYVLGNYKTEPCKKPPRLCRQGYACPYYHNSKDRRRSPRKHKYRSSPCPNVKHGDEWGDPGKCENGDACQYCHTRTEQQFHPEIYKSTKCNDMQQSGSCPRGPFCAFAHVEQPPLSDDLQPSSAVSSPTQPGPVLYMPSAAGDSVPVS
Strand	bound/input enrichment [ratio]
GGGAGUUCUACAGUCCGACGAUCUCACAGGCAGGUUUAAUGGCCAGUUUAAAACUUAUGCUAUCUGCGGGGCCAUUCGCCGGAUGGUGAGUGUUUCCCUGGGCUUUGCUCAUCACUUCGGGACAUCGUGGACUUUACCGUGCGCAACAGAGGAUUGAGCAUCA	0.098
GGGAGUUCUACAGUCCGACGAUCUAUAUGAAGGUUAUAGAACGAGCGGCUUUUCCUCGGCGUCUCUGGGAACGGGUCCGGCUCCGUAAAAACUAUGAGAAAGCACUGGAGCAAAUAGAUGAAAAUCUGAUUUACUGGCCCCGUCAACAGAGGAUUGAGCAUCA	0.156
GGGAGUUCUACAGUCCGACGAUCGUUUGGCUAAAGCCAAAGAACAGCUUUUCAUAGCCACAUUUUGUAAUUCUUGAUAAGUGACCGCUUACCAAGCUGUCUUCAUUAAAAACAAAUUUGUCCUUAGCCCUACUUUUUCUCAAACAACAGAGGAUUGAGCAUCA	0.559
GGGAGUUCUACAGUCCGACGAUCUUUUCUUUUGGAGGUGGAUUAUUUGAUGACAUGUUUGAAGAUAUGGAGAAAAUGUUUUCUUUCCGUGGUUUUGACUCUACCAAUCAGCAUACAGUACAGACUGAAAAUAGAUUUCAUGGACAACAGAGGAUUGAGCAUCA	0.339
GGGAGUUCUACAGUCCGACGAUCACGUCAGAUGACCUGACUGUUGUAGAUGCAGCUUCACUAAGACGACAGAUAAUCAAACUAAACCGACGUCUACAACUUCUGGAAGAGGAGAACAAAGAACGUGCUAAAAGAGAAAUGGUCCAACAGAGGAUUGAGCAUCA	0.234
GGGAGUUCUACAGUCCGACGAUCGCCAUAAUCCCCUACAUCCCUACUCUCAUCACUCAGCUUACACAGAAGCUAUUAGCUGUCCGUAAGAACCCAAGCAAACCUCACUUUAAUCACUACAUGUUUGAAGCAAUAUGUUUAUCCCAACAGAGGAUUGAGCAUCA	0.511
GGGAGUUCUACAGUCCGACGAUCGGAAGACCUUUCAACUCCAUUCAGAAGACAACAUUUAGUAAGGAGGAUGGCGGAGGUUACCCGUAAUUUUCAGAUGUCUUGGGCUUUUUCUGCCAACAAAACCCAAAAUCAAAUUAGAGUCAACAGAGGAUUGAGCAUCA	1.16
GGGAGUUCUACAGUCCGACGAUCGCAAGUAACAAUCGCUUAUUCCAGCUCGUAAUGAAGGGCCUACUUUAUGAAUGCUGCGCCGAAUUUUGUCAGAGUAAAGCAACUGGUGAAGAAAUUACAGAAAGUGAAGUCCUUCUUGGCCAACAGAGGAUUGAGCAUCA	0.167
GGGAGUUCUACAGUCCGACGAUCACAUUUGAUGAGCUUCGAGAAACCAAAACCUCUGAGUACUUUAGUCUGUCCCACCAGCAGUCCGACUACAGAAUAUUGCUGAUGGAUGAAGAUCAAGACCGGAUAUAUGUGGGGAGCAAACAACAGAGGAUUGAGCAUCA	0.255
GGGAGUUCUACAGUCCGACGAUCUUCUUCACCCGUAACCAUCUGCCUGUACCUAACCUGGACCCACACACCUAUCGCUUACAUGCCGCCGGGGCACCUGGAGGUCAGUCACUGUCUCUGUCCUUGGAUGAUUUGCAUAAGUUUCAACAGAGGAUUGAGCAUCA	0.242
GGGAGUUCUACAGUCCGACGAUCGCAGAGAUUCAUCACAGUUGGACUUCAGGGGUAGGGACAUACAUUCUGGGGAUUUUCGGGACCGAGAAGGACCACCUAUGGACUAUAGGGGUGGAGAUGGUACUUCUAUGGAUUAUAGAGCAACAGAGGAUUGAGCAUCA	0.722

Set 3 — method: protein-binding microarray; form: double-stranded DNA, one strand shown; matrix: in vitro; tested at: not given; direction: higher = stronger binding
Target: Transcription factor Sp1 (SP1, Homo sapiens, UniProt P08047, residues 1-785, full length assumed)
UniProt P08047, sequence (whole entry, looked up): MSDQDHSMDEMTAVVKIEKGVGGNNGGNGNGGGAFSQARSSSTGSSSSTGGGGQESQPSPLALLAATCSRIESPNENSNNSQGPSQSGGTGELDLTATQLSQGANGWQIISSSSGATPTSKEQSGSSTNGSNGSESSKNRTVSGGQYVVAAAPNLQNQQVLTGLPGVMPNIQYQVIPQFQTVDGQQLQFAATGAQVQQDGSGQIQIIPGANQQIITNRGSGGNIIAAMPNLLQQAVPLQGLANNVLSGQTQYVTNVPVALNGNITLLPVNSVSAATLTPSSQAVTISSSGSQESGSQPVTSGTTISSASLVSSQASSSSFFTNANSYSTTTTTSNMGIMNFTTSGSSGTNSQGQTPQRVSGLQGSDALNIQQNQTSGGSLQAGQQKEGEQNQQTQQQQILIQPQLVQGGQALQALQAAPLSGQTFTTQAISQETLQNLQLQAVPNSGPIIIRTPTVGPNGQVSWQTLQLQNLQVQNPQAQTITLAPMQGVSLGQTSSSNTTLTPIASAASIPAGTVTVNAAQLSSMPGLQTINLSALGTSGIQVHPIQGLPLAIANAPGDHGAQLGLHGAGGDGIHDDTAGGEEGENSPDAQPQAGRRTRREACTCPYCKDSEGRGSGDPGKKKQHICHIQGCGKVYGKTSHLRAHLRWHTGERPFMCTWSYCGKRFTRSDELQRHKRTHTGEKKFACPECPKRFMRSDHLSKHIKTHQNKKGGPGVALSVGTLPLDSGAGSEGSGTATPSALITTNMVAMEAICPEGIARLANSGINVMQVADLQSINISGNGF
Notes: k-mer, scored over probes, only values ≥0.25
Strand	E-score
ACACTTTA	0.255
CGATCCCC	0.258
CTATATAC	0.28
CATGGGCG	0.29
CCCTTATA	0.251
ACTCCCCG	0.253
ATACGCCC	0.286
ATAACCCC	0.265
ACCCCATC	0.311
GTATCATA	0.266
CGCCCATC	0.354
CCACTCCC	0.37
CATATACA	0.282
CAACACCC	0.281
ATAGGGTA	0.277
AATTGGGG	0.295
ATGCAACA	0.25
ATGGGAGG	0.432
CAAATGGG	0.254
ATATAATA	0.299
CAACCCCA	0.32
ACATCCCC	0.363

Set 4 — method: protein-binding microarray; form: double-stranded DNA, one strand shown; matrix: in vitro; tested at: 250 nM; notes: 60-bp whole probe; together with: salmon DNA 0.4 mg/ml; baseline: random background probes; direction: higher = stronger binding; constant ends, left off below: GCCTAGCAC … GTCTTGATTCGCTTGACGCTGCTG
Target: Interferon regulatory factor 7, full length, phosphomimetic (IRF7, Homo sapiens, UniProt Q92985, residues 1-503, S101K/S471D/S472D/S475D/S476D/S477D/S483D/S484D/S487D)
UniProt Q92985, sequence (whole entry, unmodified, looked up): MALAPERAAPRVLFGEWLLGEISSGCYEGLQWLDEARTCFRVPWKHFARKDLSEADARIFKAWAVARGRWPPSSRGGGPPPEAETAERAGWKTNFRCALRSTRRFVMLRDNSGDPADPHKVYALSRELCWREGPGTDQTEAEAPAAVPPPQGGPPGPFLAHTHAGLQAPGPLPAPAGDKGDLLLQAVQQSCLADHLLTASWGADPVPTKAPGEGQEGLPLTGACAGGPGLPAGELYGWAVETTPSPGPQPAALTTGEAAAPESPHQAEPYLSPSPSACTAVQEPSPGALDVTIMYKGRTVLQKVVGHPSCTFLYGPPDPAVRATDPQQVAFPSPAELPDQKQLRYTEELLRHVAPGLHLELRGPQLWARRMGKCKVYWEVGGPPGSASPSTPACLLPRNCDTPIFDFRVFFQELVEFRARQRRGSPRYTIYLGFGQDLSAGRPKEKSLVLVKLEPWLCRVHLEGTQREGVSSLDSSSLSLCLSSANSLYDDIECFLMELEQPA
Strand	log fluorescence [z-score]
CTTTCTGTCAGTTTTGAGCTGTGCTAG	1.15
GGCGGTATCGACACTGGGGACGTGCTA	-0.388
TCACATTGCCTATTTTTCACTGTGCTA	0.849
TCAGATATCGGGTTTCGATTAGTGCTA	6.82
TGTTACTAGGGTTACATAATGTGCTAG	0.517
TCAGAACTGTTTCTTGAACTGTGCTAG	0.441
GACGGTATTGGGTTTCGGGACGTGCTA	1.91
TTTTTTTTTTTTTTGTATTTGTGCTAG	0.79
TCATCCCTTTCTCTCTGACTGTGCTAG	1.85
TCAATACTCGTTTACATACTGTGCTAG	1.29
GACGGTATCGCGTTTCGGGACGTGCTA	0.763
TTAGGTATCGACTTTAGGTTAGTGCTA	1.24
TCATTTTTCTACTTCTGACTGTGCTAG	2.2
TTAGGTCTCCAACTGCTTTAGTGCTAG	-0.0818
TTAGGTTTCGACTTTCGGTTCGTGCTA	11.6
TCATCTTTCACTGCTCCAACTGTGCTA	0.767
GAGGAACTGAGACTGGAGACGTGCTAG	-0.577
GACGGACTGGGACTGGAGACGTGCTAG	-0.47
GACGGTCTCGGTCTCGGGGCGTGCTAG	0.405
TTAGAACTTAGACTGGATTAGTGCTAG	-0.148
TCATGTCTCAGAGTCCTACTGTGCTAG	0.146
TTAGGTCTCGGACTGTGTTAGTGCTAG	0.812

Repeated from above (set 4):
Strand	log fluorescence [z-score]
TTAGGTATCGACTTTAGGTTAGTGCTA	1.24
TCATTTTTCTACTTCTGACTGTGCTAG	2.2
TTAGGTCTCCAACTGCTTTAGTGCTAG	-0.0818
TTAGGTTTCGACTTTCGGTTCGTGCTA	11.6
TCATCTTTCACTGCTCCAACTGTGCTA	0.767
GAGGAACTGAGACTGGAGACGTGCTAG	-0.577
GACGGACTGGGACTGGAGACGTGCTAG	-0.47
GACGGTCTCGGTCTCGGGGCGTGCTAG	0.405
TTAGAACTTAGACTGGATTAGTGCTAG	-0.148
TCATGTCTCAGAGTCCTACTGTGCTAG	0.146
